{"data": "Published values gathered from unrelated publications", "note": "Each numbered part is a random draw from the data of one study; scales do not carry over between parts."}
{"data": "Set 1", "target": "Sal-like protein 4, full length isoform B (SALL4, Homo sapiens, UniProt Q9UJQ4-2, residues 1-616)", "technique": "universal PBM", "form": "double-stranded DNA, one strand shown", "medium": "in vitro", "concentration": "not given", "setting": "8-mer, flanks averaged, mean of replicates", "reading": "higher = stronger binding", "Target sequence (chain)": "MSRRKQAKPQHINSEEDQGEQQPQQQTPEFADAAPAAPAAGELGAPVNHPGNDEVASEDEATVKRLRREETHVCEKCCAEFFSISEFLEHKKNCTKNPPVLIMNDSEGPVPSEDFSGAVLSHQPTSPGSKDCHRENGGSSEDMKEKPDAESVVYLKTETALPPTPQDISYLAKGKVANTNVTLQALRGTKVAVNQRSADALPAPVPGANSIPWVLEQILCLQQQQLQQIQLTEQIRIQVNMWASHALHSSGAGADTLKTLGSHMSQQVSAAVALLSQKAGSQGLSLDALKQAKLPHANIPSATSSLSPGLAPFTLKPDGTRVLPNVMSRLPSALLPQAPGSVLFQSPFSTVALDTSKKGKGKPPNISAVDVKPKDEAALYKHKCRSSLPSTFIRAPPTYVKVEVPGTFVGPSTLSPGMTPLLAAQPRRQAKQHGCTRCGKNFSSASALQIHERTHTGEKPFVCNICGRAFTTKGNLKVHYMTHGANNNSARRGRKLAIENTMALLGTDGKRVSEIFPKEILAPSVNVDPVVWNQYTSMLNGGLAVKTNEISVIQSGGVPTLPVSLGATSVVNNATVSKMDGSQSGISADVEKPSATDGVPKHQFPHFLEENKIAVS"}
{"Strand": "CTGATGCA", "E-score": -0.0145}
{"Strand": "ACGCGTGC", "E-score": -0.0686}
{"Strand": "CAACTGGA", "E-score": -0.291}
{"Strand": "ATTTTATC", "E-score": 0.317}
{"Strand": "GCGCAGTA", "E-score": -0.111}
{"Strand": "AGCTTCGA", "E-score": -0.111}
{"Strand": "ATATCGGA", "E-score": 0.242}
{"Strand": "TGCCGCCA", "E-score": -0.161}
{"Strand": "AAGCGAGT", "E-score": -0.0457}
{"Strand": "AAAAGTTA", "E-score": 0.267}
{"Strand": "CTGACACA", "E-score": -0.0269}
{"data": "Set 2", "target": "RING finger protein unkempt homolog, zinc fingers 1-6, GST-SBP tag (UNK, Homo sapiens, UniProt Q9C0B0, residues 30-357)", "technique": "RNA Bind-n-Seq", "form": "RNA", "medium": "in vitro", "concentration": "not given", "setting": "RNA with constant flanks, ends assumed", "reference": "input RNA pool", "reading": "higher = stronger binding", "constant ends, left off below": "GGGAGUUCUACAGUCCGACGAUC … CAACAGAGGAUUGAGCAUCA", "sequence of UniProt Q9C0B0 (30-357, looked up)": "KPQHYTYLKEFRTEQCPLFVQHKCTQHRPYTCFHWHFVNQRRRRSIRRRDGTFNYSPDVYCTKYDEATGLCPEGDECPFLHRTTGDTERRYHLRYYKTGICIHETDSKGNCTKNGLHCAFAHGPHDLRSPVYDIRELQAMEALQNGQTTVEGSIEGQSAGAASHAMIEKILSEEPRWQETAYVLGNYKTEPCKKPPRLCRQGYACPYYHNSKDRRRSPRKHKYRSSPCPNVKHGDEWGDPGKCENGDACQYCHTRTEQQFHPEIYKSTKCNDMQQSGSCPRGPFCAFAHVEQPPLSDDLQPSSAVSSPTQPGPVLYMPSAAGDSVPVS"}
{"Strand": "AUCUGUAAUUUCAGUCUCUUUUUUUCUGAAAUACAUUAUAUUGUAUGUUUGAGAUAAUUCCCGUACAAAGUAUAAUAAACUAGAUGUAUAAUAAACCCUUUAAAUCAUUGCUAAGUGUAU", "bound/input enrichment": "5.16 ratio"}
{"Strand": "AGAUGGUUCCAGAAAAACGAGCCUCAGCUGGCGAAUGCCUUCGACAUCCUUGGUUGAAUUCUCCGCAGAUUCUACAAAUAUAGCAUUCUGAGCUAGCAAAUUUCUCCCAGUACAUUGGAC", "bound/input enrichment": "0.557 ratio"}
{"Strand": "GGGAACCCUGCCUGUUCAGCCCAGGUGCAGCAUGUCUCGCCUUCCAUUUUCCCAGCUCAUUCCGCAAGUGUAUCAGCUCCAUUGUUACCCUCAGUGGAAAGUGUCCUAAGUCCAAAUAUA", "bound/input enrichment": "0.312 ratio"}
{"Strand": "AUGUGGUAUCGUUUACGGUUAUUAAAACCCCAGCCAAAUAUUAUUCCUACAGUAAAGAAAACCGUUCUGCUUGCAGGAUGGGCACUGUUCUUAUUUCUUGCAUACAAAGUUUCCAAAACA", "bound/input enrichment": "0.175 ratio"}
{"Strand": "GUGCUAGAAAAUAAGGUCGUCUGGGAAAAGGACUGGAGACACAAGCGCAUCCAACCCCGGCCGCAAACUGAUGACUUUUCCGUGCUGAUUUCUUUCAACCUCGGUAUUUUCCCUUGGAUA", "bound/input enrichment": "0.2 ratio"}
{"Strand": "AGGAGUGAUGUAAUGGAGCUCCUUAAGAAGUCGGCCGAGGAAAGAAAACCUUAAAGGGACACCCGUGUGAUGCUUUGUCUUAAUGUGGGUUUUUCUGUUUCAGUUUGCCACCUCCAGAUG", "bound/input enrichment": "0.169 ratio"}
{"Strand": "UCAGGUGUUUGUAGUUAUUCAUACUGUAAAAAGAGGUAGCAUGAUAUGCUGGGACGCAUAUUCCGACCAGGAGCCCAAGGUGGACUCCUCGUCUUGAAUUUGCCAUUAACGUGCUGCAUG", "bound/input enrichment": "0.167 ratio"}
{"Strand": "GCUGCAUACAUAGAAAAUGCCAAACAGGUUGGCCGCCUUGAGAAUGCAAUCGGUUGGUAUCACCGCCACCCUGGUUAUGGCUGCUGGCUCUCCGGGAUUGAUGUUAGUACACAGAUGCUG", "bound/input enrichment": "0.719 ratio"}
{"data": "Set 3", "target": "Interferon regulatory factor 5, full length, phosphomimetic (IRF5, Homo sapiens, UniProt Q13568-2, residues 1-514, K96S/S451D/S453D/S456D/S462D)", "technique": "protein-binding microarray", "form": "double-stranded DNA, one strand shown", "medium": "in vitro", "concentration": "250 nM", "setting": "60-bp whole probe", "with": "salmon DNA 0.4 mg/ml", "reference": "random background probes", "reading": "higher = stronger binding", "constant ends, left off below": "GCCTAGCAC … GTCTTGATTCGCTTGACGCTGCTG"}
{"Strand": "GACGGACTGGTACTGGGGACGTGCTAG", "log fluorescence [z-score]": -0.384}
{"Strand": "TCAAGGTTGTTTCTAATACTGTGCTAG", "log fluorescence [z-score]": 0.874}
{"Strand": "AAGTGTGCCCATCTCTGCTCGTGCTAG", "log fluorescence [z-score]": -0.359}
{"Strand": "TCACTCTGCTCTTTTCAAACTGTGCTA", "log fluorescence [z-score]": 0.754}
{"Strand": "TCCTCTTTCACTGCTCCCCACGTGCTA", "log fluorescence [z-score]": 3.47}
{"data": "Single results of other studies"}
{"Molecule": "PhoQ, residues 284 288 289 292 302 303 SMMNNA", "target": "PhoP, residues 12 14 15 18 19 TQAIL (Escherichia coli, UniProt P23836)", "assay": "Sort-seq, item: YFP reporter", "test system": "E. coli", "conditions": "PhoQ-PhoP variant library, with: 10 µM Mg2+", "scale": "reference: high Mg2+ state, higher = stronger signaling", "measurement": "fold induction", "result": 22.4}
{"note": "A few entries again (set 3):"}
{"Strand": "TCAAGGTTGTTTCTAATACTGTGCTAG", "log fluorescence [z-score]": 0.874}
{"Strand": "AAGTGTGCCCATCTCTGCTCGTGCTAG", "log fluorescence [z-score]": -0.359}
